Measured values gathered from unrelated publications.
“And” joins repeats or separate records; there may be more than shown. ± gives the spread as reported.

| Compound | tested on | assay | system | setting | quantity | result |
| --- | --- | --- | --- | --- | --- | --- |
| Cc1ccc(NC(=O)c2ccc(CN3CCN(C)CC3)cc2)cc1Nc1nc(-c2cccnc2)cs1 | human coronavirus OC43 | virus-induced cell killing | MRC-5 | screen | maximum inhibition | 16% |
| CN1C(=O)Cc2ccc(F)c(CCNCC[C@H]3CN(c4ccc5c(n4)NC(=O)CO5)C(=O)O3)c21 | human DNA topoisomerase II | decatenation activity, inhibitor |  |  | IC50 | 68.6 µM |
| CN1CCN(C)/C(=N/c2ccc([N+](=O)[O-])cc2C(=O)Nc2ccccc2)C1 | mouse phorbol ester receptor | radioligand binding |  | 10 µM | inhibition | 0% |
| C[C@H](Nc1ncnc2[nH]cnc12)c1nc2ccc(F)cc2c(=O)n1-c1ccccc1 | NLRP3 inflammasome (mouse) |  | mouse BMDM | 10 µM | inhibition | 13.2% |
| COc1ncccc1-c1cnn2ccc(N3CCN(C(=O)OC(C)C)CC3)nc12 | PDE4 | inhibitor |  |  | IC50 | 8.3 µM |
| NC(=O)c1ncn([C@@H]2O[C@H](CO)[C@@H](O)[C@H]2O)n1 | human cytochrome c oxidase subunit I | measured: cytochrome c oxidase subunit I | HepG2 | 120 h | IC50 | 97 ± 33 µM |
| CC(C)CC(=O)OC[C@H]1O[C@@](C#N)(c2ccc3c(N)ncnn23)[C@H](O)[C@@H]1O | NMDA receptor Polyamine site (rat) |  |  | 20 µM | inhibition | 13% |
| CC1=CC(=O)c2c(O)cccc2C1=O | human coronavirus OC43 | virus-induced cell killing | MRC-5 | screen | maximum inhibition | 8.26% |
| NCC(O)c1ccc(O)cc1 (racemic) | SAR11_0271 protein (Candidatus Pelagibacter sp.) | thermal stabilisation, differential scanning fluorimetry |  |  | ΔTm | 7.7 °C |
| Cn1c(=O)cnc2ccc(F)c(CCNC[C@H]3CN(c4cnc5c(n4)NC(=O)CO5)C(=O)O3)c21 | human DNA topoisomerase II | decatenation activity, inhibitor |  |  | IC50 | > 90 µM |
| CSCC[C@H](NC(=O)CNC(=O)[C@H](CC(N)=O)NC(=O)[C@H](CCSC)NC(=O)[C@H](CCSC)NC(=O)[C@H](CCC(N)=O)NC(=O)[C@H](Cc1c[nH]c2ccccc12)NC(=O)[C@@H](N)CCSC)C(=O)N[C@@H](CO)C(=O)N[C@@H](CCC(N)=O)C(N)=O | huntingtin exon 1 bundled fibrils | binding, EPR spin-labeled peptide |  | 8 µM | EPR amplitude reduction | ~15% |
| O=C(Nc1cccnn1)N1CCC(=Cc2cccc(Oc3ccc(C(F)(F)F)cn3)c2)CC1 | PDGF receptor |  |  | concentration not given | inhibition | 17% and 20% |
| O=C(Nc1cccnn1)N1CCN([C@@H]2CCOc3cc(C(F)(F)F)ccc32)CC1 | kainate | Cerep BioPrint |  | 20 µM | inhibition | 10% |
| C[C@H](C(=O)N[C@H]1COc2ccccc2[C@@H]1S(C)(=O)=O)c1ccc(F)cc1 | 5-HT1 receptor, rat | binding |  | 10 µM, Eurofins selectivity panel | inhibition | 8% |
| c1cncc([C@@H]2CCCN2)c1 | sigma receptor 1 | radioligand binding |  | 50 µM | inhibition | -6.93% |
| CCCN1CCO[C@@H]2c3cc(O)ccc3OC[C@H]21 | dopamine D2-like autoreceptors | inhibition of dopamine release, agonist, fast-scan cyclic voltammetry | Mus musculus, nucleus accumbens shell slice | single pulse stimulation | EC50 | 0.065 ± 0.012 µM |
| CC(C)[C@@]1(NC(=O)[C@@H]2C[C@@H]3c4cccc5[nH]cc(c45)C[C@H]3N(C)C2)O[C@@]2(O)[C@@H]3CCCN3C(=O)[C@H](Cc3ccccc3)N2C1=O.CS(=O)(=O)O | Nedd8-cullin1 interaction | neddylation, AlphaScreen |  | 100 µM | inhibition | 17% |
| CN1C(=O)Cc2ccc(F)c(CCNC[C@H]3CN(c4ccc5c(n4)NC(=O)CO5)C(=O)O3)c21 | human DNA topoisomerase II | decatenation activity, inhibitor |  |  | IC50 | > 120 µM |
| COc1cc(Nc2ncc(F)c(Nc3ccc4c(n3)NC(=O)C(C)(C)O4)n2)cc(OC)c1OC | PDGF receptor |  |  |  | IC50 | > 10 µM |

Excerpt of the above:
| Compound | tested on | assay | system | setting | quantity | result |
| --- | --- | --- | --- | --- | --- | --- |
| O=C(Nc1cccnn1)N1CCC(=Cc2cccc(Oc3ccc(C(F)(F)F)cn3)c2)CC1 | PDGF receptor |  |  | concentration not given | inhibition | 17% and 20% |
| C[C@H](C(=O)N[C@H]1COc2ccccc2[C@@H]1S(C)(=O)=O)c1ccc(F)cc1 | 5-HT1 receptor, rat | binding |  | 10 µM, Eurofins selectivity panel | inhibition | 8% |
